# Published values of several laboratories.
# Lines come from different studies, so protocols differ. Several values in a cell are separate wells, animals, samples, runs or records. ± marks the error that the study gave.
Structure (SMILES),organism,assay,system,setting,how to read,quantity,result
O=C[C@H](C[C@H]1CCNC1=O)NC(=O)[C@H](Cc1ccccc1)NC(=O)OCc1ccccc1,human rhinovirus 51,viral replication,WI-38,37 °C,,EC50,550 ± 210 nM
C[C@@H]1C[C@H](Nc2ccccc2)c2cc(F)ccc2N1C(=O)c1ccc(F)cc1,Aedes albopictus,,,"1 µM, second-instar larvae",,logit mortality,-0.44
COc1c2c(cc3oc(=O)cc(-c4ccc(O)cc4)c13)C(=O)c1cc(C)cc(O)c1C2=O,Bacillus cereus,,MTCC 1306,100 µg/disc,,zone of inhibition,12 mm
O=C(N[C@@H](CC1CCCCC1)C(=O)N[C@@H](C[C@H]1CCNC1=O)C(=O)C(=O)NC1CC1)OCc1ccccc1,human rhinovirus 51,viral replication,WI-38,37 °C,,EC50,50 ± 30 nM
C#CCN1CCc2c3n(c4ccccc24)C(=O)C(=C)C3(C(=O)OC)C1 (stereo not shown),hepatitis B virus,rcDNA level,HuH7-NTCP,5 µM,,inhibition,< 40%
O=C(CCNC(=O)c1ccsc1)Nc1cccc(Oc2ccc(Cl)cc2)c1,hepatitis B virus,"Dane particle release, inhibitor",HepG2-hNTCP-C4,"added day 9, read day 11",,IC50,11 nM
CCCCCCCCn1c2ccccc2c2ccncc21,Echinococcus granulosus,eosin staining,sensu stricto protoscoleces,"40 µM, 48 h, 10% fetal bovine serum",,viability,83.1 ± 1.93%
CC1(CCCCCCCCCCCCCCOCCCOP(=O)(O)CO[C@H](CO)Cn2ccc(N)nc2=O)COC1,human betaherpesvirus 5,cytopathic effect,AD169,,baseline: CC50 over EC50,selectivity index,> 3000
CC(=O)OC[C@H]1O[C@@H]([Se]c2ccccc2)[C@H](OC(C)=O)[C@@H](OC(C)=O)[C@@H]1OC(C)=O,Trypanosoma brucei brucei,parasite viability,bloodstream form,5 µM,,activity,inactive
CCc1cccc2c(C(=O)COC(=O)C34CC5CC(CC(Br)(C5)C3)C4)c[nH]c12,Oryza sativa,,Nipponbare,"1 µM, 40-day-old plants",,tiller number,increased
Cc1ccc(S(=O)(=O)N(CCc2nnc(S)o2)c2ccc(Cl)cc2)cc1,Colletotrichum capsici,cup plate method,,100 µg/mL,baseline: fluconazole,relative inhibition,206%
C#CCN1CCc2c(n(C(=C)C(=O)OC)c3ccccc23)C(C(=O)OC)C1 (stereo not shown),hepatitis B virus,HBsAg secretion,HuH7-NTCP,5 µM,,inhibition,> 90%
CC[Se][C@@H]1O[C@H](COC(C)=O)[C@@H](OC(C)=O)[C@H](OC(C)=O)[C@H]1OC(C)=O,Trypanosoma brucei brucei,,bloodstream form,"5 µM, 24 h, 1 % DMSO",,viability,92.8 ± 19.5%
COc1ccc(NC(=O)N2CCCN3CC[C@H](c4ccc(-c5ccccc5)cc4)[C@@H]3C2)cc1,Toxoplasma gondii,,"HFF, RH (type I)",concentration not given,,growth inhibition,inactive
COc1cc(OC)c2c(c1)C(=O)c1cc3oc(=O)cc(-c4ccc(Cl)cc4)c3c(O)c1C2=O,Bacillus cereus,,MTCC 1306,100 µg/disc,,zone of inhibition,10 mm
CC(=O)[O-].O.O.O.O.[Ni+2].[O-]c1ccc(Br)cc1C=NCCN1CCOCC1,Bacillus cereus,,,20 µL of 100 µM per disc,,inhibition zone diameter,23 mm
Nc1ccn(C[C@@H](CO)OCP(=O)(O)OCCCS(=O)(=O)CCCCCCCCCCC2CCC2)c(=O)n1,human betaherpesvirus 5,cytopathic effect,AD169,,baseline: CC50 over EC50,selectivity index,74
O=C(C1CCN(c2nnnn2-c2ccccc2)CC1)N1CCCc2ccccc21,Plasmodium falciparum,"parasite growth, SYBR Green",3D7,"72 h, blood stage",,IC50,1800 nM
COc1ccc(NC(=O)N2CCCN3CCC(c4ccc(C#Cc5cnccn5)cc4)C3C2)cc1 (stereo not shown),Toxoplasma gondii,,"HFF, RH (type I)",concentration not given,,growth inhibition,inactive
CC[C@@H](C)[C@@H](NC(=O)[C@@H](C)NC(=O)[C@@H](CCCCN)NC(=O)[C@@H](CC(C)C)NC(=O)[C@@H](CC(C)C)NC(=O)[C@H](NC(=O)[C@@H](CCCCN)NC(=O)[C@@H](CC(C)C)NC(=O)[C@@H](C)NC(=O)[C@@H](CCCCN)NC(=O)[C@@H](CCCCN)NC(=O)[C@@H](CCCCN)NC(=O)[C@@H](C)NC(=O)[C@@H](CCCCN)NC(=O)[C@@H](CO)NC(=O)[C@@H](Cc1ccccc1)NC(=O)[C@H](NC(=O)[C@@H](CCCCN)NC(=O)[C@@H](CC(C)C)NC(=O)[C@@H](Cc1ccccc1)NC(=O)[C@@H](CO)NC(=O)[C@@H](CCCCN)NC(=O)[C@@H](Cc1c[nH]c2ccccc12)NC(=O)[C@@H](CCCCN)NC(C)=O)[C@H](C)O)[C@H](C)O)C(=O)N[C@H](CO)C(=O)N[C@H](CCCCN)C(N)=O,Acinetobacter baumannii,,11 isolates,,,MIC geometric mean,0.8 µM
C[C@@H]1C[C@H](Nc2ccccc2)c2cc(F)ccc2N1C(=O)c1ccc(N)cc1,Aedes albopictus,,,"1 µM, second-instar larvae",,logit mortality,-1.24
CCC(=O)Nc1cc(Nc2cc(NC3CC3)n3ncc(C#N)c3n2)ccc1N1CCNCC1,murine hepatitis virus,"viral replication, nanoluciferase reporter","DBT, MHV-nLuc",,,IC50,> 1000 nM
C#CCN1CCc2c([nH]c3ccccc23)C(=C)C1=O,hepatitis B virus,HBsAg secretion,HepAD38,,baseline: CC50 over IC50,selectivity index,13.9
CN[C@H](CC(C)C)C(=O)N[C@H]1C(=O)N[C@@H](CC(N)=O)C(=O)N[C@H]2C(=O)N[C@H]3C(=O)N[C@H](C(=O)N[C@H](C(=O)O)c4cc(O)cc(O)c4-c4cc3ccc4O)[C@H](O)c3ccc(c(Cl)c3)Oc3cc2cc(c3O[C@@H]2O[C@H](CO)[C@@H](O)[C@H](O)[C@H]2O[C@H]2C[C@](C)(NCc3ccc(C(=O)OCCCCCCN(Cc4ccccn4)Cc4ccccn4)cc3)[C@H](O)[C@H](C)O2)Oc2ccc(cc2Cl)[C@H]1O,Bacillus subtilis,"protein synthesis, refers to: PspA",168,"concentration not given, 10 min, at peak effective concentration",baseline: untreated,regulation factor,8.2 ± 2.5
C[C@@H]1C[C@H](Nc2ccccc2)c2cc(F)ccc2N1C(=O)c1ccc(C#N)c(Cl)c1,Aedes albopictus,,,"1 µM, second-instar larvae",,logit mortality,0.36
COC1C=COC2(C)Oc3c(C)c(O)c4c(c3C2=O)C2=NC3(CCN(CC(C)C)CC3)NC2=C(NC(=O)C(C)=CC=CC(C)C(O)C(C)C(O)C(C)C(OC(=O)Nc2cccnn2)C1C)C4=O (stereo not shown),Mycobacteroides abscessus,,76 clinical isolates,3 subspecies,,MIC90,0.4 µM
O=S(=O)(O)CCCCCCCCCCCSC[C@H]1O[C@@H]2O[C@H]3[C@H](O)[C@@H](O)[C@@H](O[C@H]4[C@H](O)[C@@H](O)[C@@H](O[C@H]5[C@H](O)[C@@H](O)[C@@H](O[C@H]6[C@H](O)[C@@H](O)[C@@H](O[C@H]7[C@H](O)[C@@H](O)[C@@H](O[C@H]8[C@H](O)[C@@H](O)[C@@H](O[C@H]1[C@H](O)[C@H]2O)O[C@@H]8CSCCCCCCCCCCCS(=O)(=O)O)O[C@@H]7CSCCCCCCCCCCCS(=O)(=O)O)O[C@@H]6CSCCCCCCCCCCCS(=O)(=O)O)O[C@@H]5CSCCCCCCCCCCCS(=O)(=O)O)O[C@@H]4CSCCCCCCCCCCCS(=O)(=O)O)O[C@@H]3CSCCCCCCCCCCCS(=O)(=O)O,Enterovirus D68,viral replication,Fermon,concentration not given,,antiviral activity,no inhibition
CCOC(=O)/C=C/c1ccc(OCCNS(=O)(=O)c2ccc(C)cc2)c(OC)c1,tobacco mosaic virus,half-leaf method,tobacco,500 µg/mL,,curative activity,57.9 ± 10.3%
O=C(N[C@@H](CC1CCCCC1)C(=O)N[C@@H](C[C@H]1CCNC1=O)C(=O)C(=O)NC1CC1)OCc1cccc(Cl)c1,Enterovirus D68,viral replication,WI-38,37 °C,,EC50,40 ± 20 nM
O=S(=O)(c1ccccc1)N(CCc1nnc(S)o1)c1ccccc1,Colletotrichum capsici,cup plate method,,100 µg/mL,baseline: fluconazole,relative inhibition,100%
Cc1ccc(NC(=O)N2CCCN3CCC(c4ccc(C#CC5CCCC5O)cc4)C3C2)cc1 (stereo not shown),Toxoplasma gondii,"parasite growth, luciferase","HFF, RH type I luciferase",,,EC90,520 nM
O=C(Nc1ccccc1Nc1ccccc1)c1cccnc1F,Sclerotinia sclerotiorum,microbial growth,,50 µg/mL,,inhibition,30.6%
O=C[C@H](C[C@H]1CCNC1=O)NC(=O)[C@H](CC1CCCCC1)NC(=O)OCc1cccc(Cl)c1,Enterovirus D68,viral replication,WI-38,37 °C,,EC50,80 ± 20 nM
CC1C=CC=CC(C)C2C=CC3CC(C)(O)C(Cl)C(C)C3C2C(=O)C(Cl)(Cl)C(=O)C(C)C(=O)O1 (stereo not shown),Staphylococcus aureus,,MSSA and MRSA clinical isolates,,,MIC range,0.025 to 0.2 µg/mL
Cc1nccc2c3ccccc3n(Cc3cccnc3)c12,Echinococcus granulosus s.s.,,"mouse, Echinococcus granulosus infection","oral, 50 mg/kg/day, 28 days",,cyst weight,4.75 ± 1.31 g
COC(=O)/C=C/c1ccc(OCCNS(=O)(=O)c2ccc(NC(C)=O)cc2)c(OC)c1,tobacco mosaic virus,half-leaf method,tobacco,"500 µg/mL, 24 h before inoculation",,protective activity,59.7 ± 6.2%
Cc1c2c(cc3oc(=O)cc(-c4ccc(O)cc4)c13)C(=O)c1cccc(O)c1C2=O,Bacillus cereus,,MTCC 1306,100 µg/disc,,zone of inhibition,8 mm
Cc1ncnc(C)c1-c1ccc(C(=O)N2CC[C@H](C(=O)Nc3cc(F)c(F)c(F)c3)C2)[nH]1,hepatitis B virus,refers to: intracellular HBV DNA,HepG2.2.15,"1 µM, 144 h",baseline: vehicle,HBV DNA remaining,32%
Cc1ccc(NC(=O)N2CCCN3CCC(c4ccc(C#CC5CCSCC5)cc4)C3C2)cc1 (stereo not shown),Toxoplasma gondii,parasite growth,"HFF, RH type I luciferase",,,EC90,2100 ± 1100 nM
COc1ccc(C(=O)CSc2nnc(COCCn3c([N+](=O)[O-])cnc3C)o2)cc1F,Enterobacter cloacae,,DMSO,"60 µg/mL, 24 h, 37 °C",,inhibition zone diameter,≥ 20 mm
O=C1CC(c2ccc(O)cc2)Oc2cc(O)cc([O][Ga+][O]c3cc(O)cc4c3C(=O)CC(c3ccc(O)cc3)O4)c21 (stereo not shown),Pseudomonas aeruginosa,RNA-seq,PAO1,"4 µM, 4 h",,number of differentially expressed genes,1530
Cc1ncc(COP(=O)(O)O)c(C=NNC(=N)NO)c1O,Herpes simplex virus 1,"viral replication, plaque reduction","Vero, McKrae",4 days,,IC50,inactive
COc1ccc(NC(=O)N2CCCN3CCC(c4ccc(C#CC5CC5)cc4)C3C2)cc1 (stereo not shown),Toxoplasma gondii,parasite growth,"HFF, RH type I luciferase",,,EC90,> 10000 nM
O=C(Nc1ccc2c(c1)CN(c1ccccc1)C2=O)N1CC[C@H](O)C1,Trypanosoma brucei brucei,"parasite growth, resazurin",Squib 427,3 d,,IC50,> 64000 nM
Cc1ccc(NCC(=O)Nc2ccc(F)c(Cl)c2)cc1S(=O)(=O)N1CCOCC1,Plasmodium cynomolgi,,liver-stage large forms,10 µM,,antiplasmodial activity,no effect
Cc1ccc(O)c(C=NNC(=N)NO)n1,human mastadenovirus C,plaque reduction,"A549, McEwen",,,inhibitory concentration,< 100 µM
C#CCN1CCC23C(=C(C(=O)OC)CC(C(=O)OC)C12)Nc1ccccc13 (stereo not shown),hepatitis B virus,HBsAg secretion,HuH7-NTCP,5 µM,,inhibition,40 to 50%
CCCCCC1CC2CCCC3CC(C)N=C(N1)N32 (stereo not shown),Candida krusei,fungal growth,ATCC 6258,,,MFC,15.9 µM and 15 µM
C[C@@H]1C[C@H](Nc2ccccc2)c2cc(F)ccc2N1C(=O)c1ccc(Br)cc1,Aedes albopictus,,,"1 µM, second-instar larvae",,logit mortality,0.61
COc1ccc(NC(=O)N2CCCN3CCC(c4ccc(C#Cc5ccncc5)cc4)C3C2)cc1 (stereo not shown),Toxoplasma gondii,,"HFF, RH (type I)",concentration not given,,growth inhibition,inactive
CC(C)C[C@H](NC(=O)OCc1cccc(Cl)c1)C(=O)N[C@H](C=O)C[C@H]1CCNC1=O,human rhinovirus 1B,viral replication,WI-38,37 °C,,EC50,750 ± 210 nM
Cc1ccc(NC(=O)N2CCCN3CCC(c4ccc(C#CC5(O)CCOCC5)cc4)C3C2)cc1 (stereo not shown),Toxoplasma gondii,parasite growth,"HFF, RH type I luciferase",,,EC90,4880 ± 730 nM
COc1ccc(-c2nc(-c3ccccc3OC)[nH]c2-c2ccc(OC)cc2)cc1,Schistosoma mansoni,,adult male worms,10 µM,,worm killing,0%
COc1ccc(NC(=O)N2CCCN3CC[C@H](c4ccc(/C=C/c5ccccc5)cc4)[C@@H]3C2)cc1,Toxoplasma gondii,,"HFF, RH (type I)",concentration not given,,growth inhibition,inactive
CC(C)C[C@H](NC(=O)CNC(=O)c1cc(Cl)ccc1Cl)B(O)O,Babesia divergens,,erythrocyte culture,"400 nM, 48 h",,reduction of parasitemia,64%

# For quick reference, copied from above:
Structure (SMILES),organism,assay,system,setting,how to read,quantity,result
C#CCN1CCc2c([nH]c3ccccc23)C(=C)C1=O,hepatitis B virus,HBsAg secretion,HepAD38,,baseline: CC50 over IC50,selectivity index,13.9
Cc1ccc(O)c(C=NNC(=N)NO)n1,human mastadenovirus C,plaque reduction,"A549, McEwen",,,inhibitory concentration,< 100 µM
COc1c2c(cc3oc(=O)cc(-c4ccc(O)cc4)c13)C(=O)c1cc(C)cc(O)c1C2=O,Bacillus cereus,,MTCC 1306,100 µg/disc,,zone of inhibition,12 mm
COc1ccc(C(=O)CSc2nnc(COCCn3c([N+](=O)[O-])cnc3C)o2)cc1F,Enterobacter cloacae,,DMSO,"60 µg/mL, 24 h, 37 °C",,inhibition zone diameter,≥ 20 mm
CC(=O)OC[C@H]1O[C@@H]([Se]c2ccccc2)[C@H](OC(C)=O)[C@@H](OC(C)=O)[C@@H]1OC(C)=O,Trypanosoma brucei brucei,parasite viability,bloodstream form,5 µM,,activity,inactive
Cc1ccc(NC(=O)N2CCCN3CCC(c4ccc(C#CC5CCCC5O)cc4)C3C2)cc1 (stereo not shown),Toxoplasma gondii,"parasite growth, luciferase","HFF, RH type I luciferase",,,EC90,520 nM
Cc1ccc(NC(=O)N2CCCN3CCC(c4ccc(C#CC5CCSCC5)cc4)C3C2)cc1 (stereo not shown),Toxoplasma gondii,parasite growth,"HFF, RH type I luciferase",,,EC90,2100 ± 1100 nM
COC(=O)/C=C/c1ccc(OCCNS(=O)(=O)c2ccc(NC(C)=O)cc2)c(OC)c1,tobacco mosaic virus,half-leaf method,tobacco,"500 µg/mL, 24 h before inoculation",,protective activity,59.7 ± 6.2%
